Results collected from several papers.
Parts stem from different laboratories: compare values within a part only.

Series 1 — technique: protein binding microarray; molecule type: double-stranded DNA, one strand shown; sample: in vitro; concentration: not given; reference: not given; reading: higher = stronger binding
Target: Histone acetyltransferase KAT6A, winged helix 2, GST fusion (KAT6A, Homo sapiens, UniProt Q92794, residues 85-181)
Notes: 8-mer, flanks averaged, mean of 2 arrays, mostly near background
Target sequence (chain): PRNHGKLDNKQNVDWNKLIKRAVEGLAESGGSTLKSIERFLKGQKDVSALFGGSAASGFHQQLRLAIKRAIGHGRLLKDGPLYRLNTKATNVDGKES
Sequence	E-score
CTTACCAC	-0.0528
AGCGTCCG	0.119
ATTTTCGC	0.0506
AATATCTG	-0.169
ACTTCGTC	0.172
CACCCTGG	-0.0948
CAATGGTA	-0.0519
AGGCAGGG	0.0202
GATGAATA	0.0846
GACATCGC	-0.0756
ACGTAATC	-0.265
CGAAGCCA	0.182
CAGGTAAG	-0.236
AGAGTCCT	-0.196
CCGGTTAC	0.0318
CTTTCAGC	0.0138
ATAGTCTA	-0.124
ACAGCTCA	-0.101
CCTGGCAG	0.077
ATTGATCA	-0.0456
AAACGATT	-0.11
AACCTCTC	-0.0134
CCGCACTA	0.19
ATACACAC	0.0488
AGAAATGA	0.13

Series 2 — technique: competition protein-binding microarray; molecule type: double-stranded DNA, one strand shown; sample: in vitro; concentration: 2 µM; added: Pho4 competitor, 0.05 µM; reading: higher = stronger binding
Target: Centromere-binding protein 1, full length, His-tagged (CBF1, Saccharomyces cerevisiae, UniProt P17106, residues 1-351)
Sequence of UniProt P17106 (whole entry, looked up): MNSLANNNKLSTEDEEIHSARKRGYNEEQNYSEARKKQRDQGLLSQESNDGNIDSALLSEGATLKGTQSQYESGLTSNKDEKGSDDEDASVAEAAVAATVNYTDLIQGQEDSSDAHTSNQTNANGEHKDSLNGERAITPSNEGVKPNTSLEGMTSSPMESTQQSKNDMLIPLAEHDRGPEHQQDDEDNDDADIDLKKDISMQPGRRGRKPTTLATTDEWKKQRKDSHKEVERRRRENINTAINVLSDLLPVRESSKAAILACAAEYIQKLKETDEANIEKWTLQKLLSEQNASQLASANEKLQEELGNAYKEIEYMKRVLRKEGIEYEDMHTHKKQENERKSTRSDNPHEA
Notes: whole 60-bp probe, lowest competitor level
Sequence	fluorescence intensity [a.u.]
CGTCCTAGCGATTGAATCGTGGGTGCCATGAGGAAGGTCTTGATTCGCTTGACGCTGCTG	73.3
CTTCTGTAAATTTGGCCGGTGGGTGGACGCGCCCCGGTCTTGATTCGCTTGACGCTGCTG	59.2
CTAACGAAGGTTTTTCACGTGCTGTACAAGCCAAGTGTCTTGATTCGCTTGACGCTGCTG	1160
GCCTCCATATTACTCACCGTGCCAGACCCATTGTCGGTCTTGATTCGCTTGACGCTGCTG	63.6
TTTCTTATGAAAATCAGTGTGACAGTAATGAGACTTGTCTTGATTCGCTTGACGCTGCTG	92.4
AACGATGCCCTTACCCACGTTATTGTTGTATAATTCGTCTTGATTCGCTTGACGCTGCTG	99.2
CTTCGGTAGCCGAGCCTCGTCTGTGTGTGTGGGAATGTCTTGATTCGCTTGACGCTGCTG	54.6
AGCAAGTTTTACCATCACCTGCACAACCACAACAGCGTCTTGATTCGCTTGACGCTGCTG	170
ATACTGAAGATTCGAAACGTGTTTCTAAAACCAATAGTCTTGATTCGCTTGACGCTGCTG	148
CGTCCTAGCGATTGACAAGTGGGTGCCATGAGGAAGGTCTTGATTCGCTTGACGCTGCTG	74.7
AAAGCGGTAATTTGTGGAGTGGGTGCAGATATCTATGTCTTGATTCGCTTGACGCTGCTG	77.8
TTTACAAGCCAGAAAGCCGTGATGGCTTGATTATCAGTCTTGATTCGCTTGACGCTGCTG	65
TTGAACTTGTACTTGCACATGTATCTTATTGTTTCGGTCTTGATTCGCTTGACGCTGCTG	159
ATGCTGCTAAAGGAACACGTGAGAAATTACATTCTCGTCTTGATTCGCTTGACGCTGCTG	2160
CGAACGTAGCTTCGTCACATGCTATGCTAGCAACTAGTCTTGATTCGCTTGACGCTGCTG	696
CGTAAGAAAGGCCATCACGTGTGGAGGGGAGAGCTCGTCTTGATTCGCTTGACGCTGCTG	1940
CTTGACTATCCAGATCGTGTGAGAGGGCAACTGTGTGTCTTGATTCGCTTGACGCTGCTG	71.8
ATTTGAACATTGAATCATGTGTACCTAACATAAAATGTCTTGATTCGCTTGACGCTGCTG	261
CTTTCCCGATCTTGTCTAGTGGGTGTAGCACATTTGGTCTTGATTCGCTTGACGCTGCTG	68.8

Series 3 — technique: RNA Bind-n-Seq; molecule type: RNA; sample: in vitro; concentration: 200 nM; notes: whole 134-nt RNA, ends assumed; added: 150 mM KCl; reference: input library; reading: higher = stronger binding
Target: Ras GTPase-activating protein-binding protein 1, full length (G3BP1, Homo sapiens, UniProt Q13283)
Sequence of UniProt Q13283 (whole entry, looked up): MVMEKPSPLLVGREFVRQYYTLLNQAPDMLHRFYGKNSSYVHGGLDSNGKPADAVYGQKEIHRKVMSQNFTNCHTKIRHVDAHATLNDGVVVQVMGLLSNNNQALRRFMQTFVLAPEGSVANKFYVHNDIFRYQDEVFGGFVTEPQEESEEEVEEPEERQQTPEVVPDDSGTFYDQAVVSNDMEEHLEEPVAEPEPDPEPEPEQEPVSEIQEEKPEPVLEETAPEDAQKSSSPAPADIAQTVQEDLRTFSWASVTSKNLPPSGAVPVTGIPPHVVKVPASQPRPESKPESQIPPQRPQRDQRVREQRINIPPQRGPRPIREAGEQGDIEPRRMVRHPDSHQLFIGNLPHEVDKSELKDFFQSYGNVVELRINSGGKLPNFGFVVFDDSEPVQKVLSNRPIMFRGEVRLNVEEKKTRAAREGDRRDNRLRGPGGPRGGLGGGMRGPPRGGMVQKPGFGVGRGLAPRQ
Sequence	log2 enrichment
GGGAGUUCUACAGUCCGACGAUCGCAGGAAGUAAAAACAAAUGGAAAUGCUUCGGAUAGUGGCAGGGGUGGGGGUUGCUAAGGAAAGGGCGGGAUGGGAGUGGGUAAAGAGUUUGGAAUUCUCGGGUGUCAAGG	0.944
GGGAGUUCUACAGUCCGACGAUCCCUCAAGUCCUGUGCUACACAUCGUAUGUACCGAAUCGGGAGGGAGGGUGGGAAAGUAUUAUGUUACGCCGUUCGGAUCUGCACUUCCAGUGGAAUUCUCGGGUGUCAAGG	1.39
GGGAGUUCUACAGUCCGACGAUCAAGUCCUGUGCUACACAUCGUAUGUACCGAAUCGGGGAAAAGGAAAAGGGAAAAGGGAAAGUAUUAUGUUACGCCGUUCGGAUCUGCACUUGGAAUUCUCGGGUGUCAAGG	-0.592
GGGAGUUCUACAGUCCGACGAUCGGAGGAAGUAAAAACAAAUGGAAAUGCUUCGGAUAGUGGCAGGGGUGGGGGUUGCUAAGGAAAGGGUGGGAUGGGAGUGGGUAAAGAGUUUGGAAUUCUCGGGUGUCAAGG	0.866
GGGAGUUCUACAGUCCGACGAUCCUCAAGUCCUGUGCUACACAUCGUAUGUACCGAAUCGGGUUUGGGAGGGAGGGAAAGUAUUAUGUUACGCCGUUCGGAUCUGCACUUCCAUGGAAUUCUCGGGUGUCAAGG	1.44
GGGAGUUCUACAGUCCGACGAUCAGUCCUGUGCUACACAUCGUAUGUACCGAAUCGGGUUUUUGGGUUUUUUUGGGUGGGAAAGUAUUAUGUUACGCCGUUCGGAUCUGCACUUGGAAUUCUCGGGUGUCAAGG	-0.132
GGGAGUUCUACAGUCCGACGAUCCAAGUCCUGUGCUACACAUCGUAUGUACCGAAUCGGAAAGGGGAAAGGGAAAGGGGAAAGUAUUAUGUUACGCCGUUCGGAUCUGCACUUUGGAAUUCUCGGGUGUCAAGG	0.121
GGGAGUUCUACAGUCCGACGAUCAGUCCUGUGCUACACAUCGUAUGUACCGAAUCAAAUUUAAAUUUUUAAAUUUUUAAAAAAGUAUUAUGUUACGCCGUUCGGAUCUGCACUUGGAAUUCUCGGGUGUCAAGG	-1.75
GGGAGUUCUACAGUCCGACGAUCUGGCCCUGGUGGCAUGCGGCGAGGAAGAGGUGGCCUCAUGGAUCGUGGUGGUCCCGGUGGAAUGUUCAGAGGUGGCCGUGGUGGAGACAGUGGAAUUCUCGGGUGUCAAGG	0.352
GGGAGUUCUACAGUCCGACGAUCCACAGACAACACGCACCCACACACACACAGAGGGAAGGGGUUGGGAUGGGGACAGGGUGCACAGCAGGGCGGGGUAGGACCCCAGCCCCUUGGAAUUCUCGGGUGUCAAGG	1.44

Series 4 — technique: RNA Bind-n-Seq; molecule type: RNA; sample: in vitro; concentration: 365 nM; reference: no-protein control; reading: higher = stronger binding
Target: RNA binding protein fox-1 homolog 2, RRM domain, GST-SBP tag (RBFOX2, Homo sapiens, UniProt O43251-10, residues 100-194)
Notes: natural RNA segment, single round, ends assumed
Construct (chain): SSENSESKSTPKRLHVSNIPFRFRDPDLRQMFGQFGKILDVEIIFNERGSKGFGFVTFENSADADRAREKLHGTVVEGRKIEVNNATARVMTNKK
Sequence	RBNS enrichment (R)
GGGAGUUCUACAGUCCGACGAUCGUGGCCACUUAUUAUUACCUAAAGAAAACAUUUGUUCCCUGUUCAUUUUAUUUUAGGGGCCAGAUCUAACAUUGUAGUGUCUUUCACCAGAUAGACUUCUACUGUUUCAUUGGAAUUCUCGGGUGCCAA	0.26
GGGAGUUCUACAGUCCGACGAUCUUGUGACCAAAUGGGCCUCAAAGAUUCAGAUUGAAACAAACAAAAAGCUUUUGAUGGAAAAUAUGUGGGUGGAUAGUAUAUUUCUAUGGGUGGGUCUAAUUUGGUAACGGUGGAAUUCUCGGGUGCCAA	1.19
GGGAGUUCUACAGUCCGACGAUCGGCUUCCUCUAUGGAUGCUUCCAGCGGACAACCACCAUCUCUGUGUCUCUCUCAUUCUCUCUUCACCUGCCAUAGCAAAGAAACAUCCCAGAAUCGACCCUUCUCCCAUUUGGAAUUCUCGGGUGCCAA	0.736
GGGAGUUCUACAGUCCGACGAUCUCAGAACCUGUGCACUCAUUUGCCCAGCAUUUCCUAGUGUCUAUUGGAUCAGAAACUGGUUUUACCCGGACAUCACAAUCGAGGCCUUCAAAGCAGCGGGGAGUCGGGCUUGGAAUUCUCGGGUGCCAA	0.395
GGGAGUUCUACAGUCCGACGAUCUCACUCUUUCUUCUCUCUUUGUCCCGGAUAGGCUAAUCAAUACCCUUGGCACUGAUGGGCACUGGAAAACAUAGAGUAGACCUGAGAUGCUGGUCAAGCCCCCUUUGAUUUGGAAUUCUCGGGUGCCAA	0.301
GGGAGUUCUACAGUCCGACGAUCCCUUGCCUACCUCUUUCUAUCUCCCAGCAGCCCUCAGGUAGCAGUUGAUUUAUUUUACACCUCUGCUUAGGCCUCCUGCCUGGAGAUGAGCCAUGCUGUUGUGAGAUUUUUGGAAUUCUCGGGUGCCAA	0.408
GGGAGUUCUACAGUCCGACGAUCCUACCCACUCCCCUAGGGUCUCCCAGGCUCAGAAGGGGAUGCACGCCCCCUGUGGUCAAGCCUCUGGUGGGCGUCUUGCCCAGUUCCUGAUGGUUCAAGGGGAGGGGGGAUGGAAUUCUCGGGUGCCAA	2.39
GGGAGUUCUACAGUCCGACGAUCUUUUUGUUAACUAAAAAGUGAAAUAUGGGAUGGAUUCUAGAAAUGGGGUAUCUCUGUCCAUACUUCUAGAAUCCACUCUAUCAGCAUAGUCCAGAAGAAUACCUGGCAGUUGGAAUUCUCGGGUGCCAA	0.266
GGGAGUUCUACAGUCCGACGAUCCCUGACUAUUUGUAAAUGCUUUAGAGUUUUAAAUUAACACUUCUGUUGCUAAAUACUAUUUAUGUAAGUCUGAAAAGGUUUUUAACCCAUAUAAAACAUUUAAAUAAUGCUGGAAUUCUCGGGUGCCAA	0.556
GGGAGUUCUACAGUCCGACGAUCUAGAGACAGAGUCUCCCUCUGUUGCCCAGGCUGGUCUGGAACUCCUAGCUUCAAAUGAUCCUCUCACCUCGGCCUCCCAAAAUCCUGGGAUUCCAGGCGUCAGCCACUGCUGGAAUUCUCGGGUGCCAA	0.605
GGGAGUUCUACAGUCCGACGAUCUGCAAAGAAGACUAUAGUUUCAGGCAGAAAAUCACGUCCAAAGAAUUUGGCAUGGAUUAAACAACCUCUACCACACUAUAGCUCUCACAUAGGCUGAACAUUUUCCUAAAUGGAAUUCUCGGGUGCCAA	0.276
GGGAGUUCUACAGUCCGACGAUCGCCUUGCAGUAGGCAGUAGACUAUAAGCAGAAGCACAUAUGAACUGGACCUGCACCAAAGCUGGCACCAGGGCUCGGAAGGUCUCUGAACUCAGAAGGAUGGCAUUUUUUUGGAAUUCUCGGGUGCCAA	2.92
